Experimental data pooled from the literature.
Parts stem from different laboratories: compare values within a part only.

Study 1
Target: Fragile X messenger ribonucleoprotein 1, C-terminal low-complexity region (Fmr1, Mus musculus, UniProt P35922)
Technique: RNA Bind-n-Seq
Molecule type: RNA
Medium: in vitro
Tested at: 200 nM
Setting: whole 134-nt RNA, ends assumed
With: 150 mM KCl
Relative to: input library
Direction: higher = stronger binding
| Sequence | log2 enrichment |
| --- | --- |
| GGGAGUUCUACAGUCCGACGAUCUGGGAGGUGGAUUUUGUUUAUUUUUUUAGCUCAUUUCCAGGGGUGGGAAUUUAUUUUUAAUAUGUGUCAUGAAUAAAGUUGUUUUUGAAAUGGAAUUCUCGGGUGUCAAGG | 0.273 |
| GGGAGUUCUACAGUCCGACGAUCAGUCCUGUGCUACACAUCGUAUGUACCGAAUCGGGUUUUUGGGUUUUUGGUUUUUGGGAAAGUAUUAUGUUACGCCGUUCGGAUCUGCACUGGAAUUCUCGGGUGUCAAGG | -0.541 |
| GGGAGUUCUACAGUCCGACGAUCGUCCUGUGCUACACAUCGUAUGUACCGAAUCGGUUUUUUUGGAAAAAAAGGUUUUUGGAAAGUAUUAUGUUACGCCGUUCGGAUCUGCACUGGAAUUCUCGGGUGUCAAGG | -1.2 |
| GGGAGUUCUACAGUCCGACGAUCAAGUCCUGUGCUACACAUCGUAUGUACCGAAUCGGGAAAGGGGAAAGGGGAAAGGGGAAAGUAUUAUGUUACGCCGUUCGGAUCUGCACUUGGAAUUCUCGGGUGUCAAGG | 0.206 |
| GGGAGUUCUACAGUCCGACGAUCUCCUGUGCUACACAUCGUAUGUACCGAAUCAAAGUGUGUGUGUGUGUGUGUGUGUGUAAAAAAGUAUUAUGUUACGCCGUUCGGAUCUGCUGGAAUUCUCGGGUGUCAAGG | 0.559 |
| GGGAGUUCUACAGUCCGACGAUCGCAGCAAGUAAAAACAAAUGGAAAUGCUUCGGAUAGUGGCAGGGGUGGGGGUUGCUAAGGAAAGGGUGGGAUGGGAGUGGGUAAAGAGUUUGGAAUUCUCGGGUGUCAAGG | 0.442 |
| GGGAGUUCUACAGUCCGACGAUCAAGUCCUGUGCUACACAUCGUAUGUACCGAAUCGGGUUUUGGUUUUGGGGUUUUGGGAAAGUAUUAUGUUACGCCGUUCGGAUCUGCACUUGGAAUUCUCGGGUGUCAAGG | -0.0112 |
| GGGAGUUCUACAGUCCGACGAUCUAACUUUAGAGGAGGAUCUGAUGGAUAUGGCAGUGGACGUGGAUUUGUGGAUGGCUAUAAUGGGUAUGGAGGAGGACCUGGAGGUGGCAAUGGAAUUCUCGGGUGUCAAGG | 0.397 |
| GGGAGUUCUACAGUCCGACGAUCCUCAAGUCCUGUGCUACACAUCGUAUGUACCGAAUCGGGAAAGGGUGGGAGGGAAAGUAUUAUGUUACGCCGUUCGGAUCUGCACUUCCAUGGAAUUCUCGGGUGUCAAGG | 1.29 |
| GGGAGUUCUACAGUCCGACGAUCCCUGUGCUACACAUCGUAUGUACCGAAUCGGCCCCCCGGGGCCCCCCGGGGCCCCCCGGGGAAAGUAUUAUGUUACGCCGUUCGGAUCUGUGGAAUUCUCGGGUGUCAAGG | -0.992 |

Study 2
Target: Max dimerization protein 1, bHLH-zipper, MAX partner unstated (MXD1, Homo sapiens, UniProt Q05195, residues 56-136)
Technique: protein-binding microarray
Molecule type: double-stranded DNA, one strand shown
Medium: in vitro
Tested at: not given
Setting: k-mer, scored over probes, only values ≥0.25
Direction: higher = stronger binding
Residues (chain): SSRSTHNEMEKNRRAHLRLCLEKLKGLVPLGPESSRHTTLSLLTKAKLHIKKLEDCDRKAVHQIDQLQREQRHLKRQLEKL
| Sequence | E-score |
| --- | --- |
| GCGGGGAC | 0.29 |
| AGCGTGAC | 0.312 |
| ATGCGTGG | 0.387 |
| GGCGCCAC | 0.261 |
| GACATGCA | 0.309 |
| ACACGAGA | 0.395 |
| CGCCCCTA | 0.258 |
| CCCCCCCG | 0.306 |
| CCCCCTCC | 0.327 |
| ACGCACGA | 0.332 |
| GCATGGGC | 0.343 |
| ACGTGCAT | 0.395 |
| GACCCGCC | 0.318 |
| GCATGGGA | 0.367 |
| GCGTGGTA | 0.373 |
| AGCACACC | 0.258 |
| ATGTTTAC | 0.279 |
| GGCATGAC | 0.253 |
| AATACACG | 0.321 |
| AATGCATG | 0.378 |
| AGGGTGGG | 0.276 |

Study 3
Target: RNA binding protein fox-1 homolog 2, RRM domain, GST-SBP tag (RBFOX2, Homo sapiens, UniProt O43251-10, residues 100-194)
Technique: RNA Bind-n-Seq
Molecule type: RNA
Medium: in vitro
Tested at: 365 nM
Setting: natural RNA segment, single round, ends assumed
Relative to: no-protein control
Direction: higher = stronger binding
Target sequence (chain): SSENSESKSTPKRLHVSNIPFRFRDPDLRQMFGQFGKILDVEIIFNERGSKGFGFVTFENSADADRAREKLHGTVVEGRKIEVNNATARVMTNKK
| Sequence | RBNS enrichment (R) |
| --- | --- |
| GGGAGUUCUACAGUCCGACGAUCAUCGGUCCCCCUGCUGCUCUGUCCACUACAAGGUCAGCCACCUGCCAGGAGGCCACAGACAACAGGAAGAACCAAGCAGCACUCCAGCCAAGCCGUCACCAAGAGCCCAUUGGAAUUCUCGGGUGCCAA | 0.157 |
| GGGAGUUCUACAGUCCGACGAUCUAGGUAUUAGUGCUAGUCUCAGAUAGGUGCUUCCCCUGAGGUGCAGGGGAAGACCAAAGUUUGCAACUCGAACUGCUUUCGUCCAUGUUUCUCACAUUGCUGUAUUUUAGUGGAAUUCUCGGGUGCCAA | 0.512 |
| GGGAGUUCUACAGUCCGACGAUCCAGUACUUGAAGUUCGUACUAGAGAAUUCCUUUGUAGUUUUGAAGCUUUUAUCCAAACUACUUUGAAAUAGGUGGCUUUCUUGUCAGUGGUUUGCCCCCCAGGUGUAAUUUGGAAUUCUCGGGUGCCAA | 0.745 |
| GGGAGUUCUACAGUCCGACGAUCAAAAAAAACAAAAAGCAAAAAACAAAAACCUACCCUGUUCUGGUUUUUUUCCUCCCUUUAGUUCCACCCCCAACCCCCAUUCCCUGGUGUCCUUCUUAGAGAUGAAGAAAUGGAAUUCUCGGGUGCCAA | 0.882 |
| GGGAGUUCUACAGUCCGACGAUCCCUCUCCUGAUUCAGACCAGCUCCAUCAAGCAACCUCUUUUGACUUUCUGUAUAUGGAUGGCACAGAGGAAUCAAGGACAACUUAGCUCUCUGCAUACUUGGAACAACCAUGGAAUUCUCGGGUGCCAA | 0.666 |
| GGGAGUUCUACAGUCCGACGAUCCCCCUCCCAGUCCCUGUUGGCUUUCGGUAGCUCUCGCAUGCAGUUCUAUUAACAGCCGUCUAGAAGCGAUGCUUUAGUGGCCUAACCCAGGGUCAAAUACAGCUCUUUCUUGGAAUUCUCGGGUGCCAA | 12.2 |
| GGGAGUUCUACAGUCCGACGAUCAGUGUCUCUUUACAUGGAUAUUUUGCCUGUCAAAUGAAUUGAUAGCUAAUAAAAGUCAACAAGCCAUAGAAUCUAAUUCUUUAUUGCAGAAUUACUUGUUUUAACAGAAUUGGAAUUCUCGGGUGCCAA | 0.464 |
| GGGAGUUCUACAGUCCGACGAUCGCCAGUCCCCCUGCCCCAGGGCUCCCGGCUAUGGGGGCACUGAGGACCAGCCAUUGAGGGGUGGACCCUCAGAAGGCGUCACAACAACCUGGUCACAGGACUCUGCCUCCUGGAAUUCUCGGGUGCCAA | 0.282 |
| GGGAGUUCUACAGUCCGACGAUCCCACCGCGUCUUGUCUGCAGCUUCUUGGCCAAUGUAGUAAUGCUUUUAGUAGAGUAAUAGGUAGUAUCAGUUUGGAUUCUUAUUGUUAUCACCUAUGUACAAUGGAGAGGUGGAAUUCUCGGGUGCCAA | 0.368 |
| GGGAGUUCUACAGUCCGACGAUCUUCCCCUGAGCAUCCUCUAGAUGCUGCCCCAAGGAGUUGCUGCAGUUCUGGAGCCUCAUCUGGCUGGGAUCUCCAAGGGGCCUCCUGGAUUCAGUCCCCACUGGCCCUGAUGGAAUUCUCGGGUGCCAA | 0.221 |
| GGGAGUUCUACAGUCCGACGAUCACAAUCCAUGGGGGCGCUUAGUGGAAGGAUUAAUAUUAUGUUUAAGGGAAUAGUUUAUAUGGACCUUUUUGUCAACAAUAAGCUAUUGUAAAGAUAUUUAAUGUUCUGUUUGGAAUUCUCGGGUGCCAA | 0.323 |
| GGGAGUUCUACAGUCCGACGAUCUCUUUUGAUUCCUCUUGGGCUGAAGCAGACCAAGUUCCCCCCAGGCACCCCAGUUGUGGGGGAGCCUGUAUUUUUUUUAACAACAUCCCCAUUCCCCACCUGGUCCUCCCUGGAAUUCUCGGGUGCCAA | 0.598 |

Study 4
Target: Sal-like protein 4, full length isoform A (SALL4, Homo sapiens, UniProt Q9UJQ4, residues 1-1053)
UniProt Q9UJQ4, sequence (whole entry, looked up): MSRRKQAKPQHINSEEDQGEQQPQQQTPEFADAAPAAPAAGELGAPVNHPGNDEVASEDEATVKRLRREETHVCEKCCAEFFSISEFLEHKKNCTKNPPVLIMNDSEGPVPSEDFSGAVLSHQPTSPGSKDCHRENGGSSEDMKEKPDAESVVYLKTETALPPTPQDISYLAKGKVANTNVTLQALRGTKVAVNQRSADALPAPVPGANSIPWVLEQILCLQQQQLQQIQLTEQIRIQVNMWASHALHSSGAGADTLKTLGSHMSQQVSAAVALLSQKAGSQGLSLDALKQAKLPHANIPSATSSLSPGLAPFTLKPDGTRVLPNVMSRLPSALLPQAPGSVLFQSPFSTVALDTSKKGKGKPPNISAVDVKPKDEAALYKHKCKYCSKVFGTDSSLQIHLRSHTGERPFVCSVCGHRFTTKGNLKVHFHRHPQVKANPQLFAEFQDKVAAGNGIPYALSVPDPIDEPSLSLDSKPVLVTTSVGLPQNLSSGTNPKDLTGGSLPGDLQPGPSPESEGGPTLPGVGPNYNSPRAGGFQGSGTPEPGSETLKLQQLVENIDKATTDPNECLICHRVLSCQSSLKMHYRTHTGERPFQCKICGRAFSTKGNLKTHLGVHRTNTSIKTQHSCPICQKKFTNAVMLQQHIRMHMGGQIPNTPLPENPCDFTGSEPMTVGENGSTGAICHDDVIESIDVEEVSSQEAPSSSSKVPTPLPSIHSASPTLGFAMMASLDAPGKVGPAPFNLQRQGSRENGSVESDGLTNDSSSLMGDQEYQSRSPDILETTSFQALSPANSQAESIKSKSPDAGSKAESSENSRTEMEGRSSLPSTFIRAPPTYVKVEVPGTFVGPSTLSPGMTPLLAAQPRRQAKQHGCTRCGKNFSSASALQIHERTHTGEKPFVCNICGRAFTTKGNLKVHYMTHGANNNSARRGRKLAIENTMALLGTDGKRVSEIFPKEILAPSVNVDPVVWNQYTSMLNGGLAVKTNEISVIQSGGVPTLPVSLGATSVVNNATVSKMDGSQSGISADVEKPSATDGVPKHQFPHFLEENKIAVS
Technique: universal PBM
Molecule type: double-stranded DNA, one strand shown
Medium: in vitro
Tested at: 600 nM
Setting: 8-mer, flanks averaged, mean of replicates
Direction: higher = stronger binding
| Sequence | E-score |
| --- | --- |
| ACTGGCTA | -0.119 |
| CGTGTCAG | -0.0895 |
| CGCCGCAA | -0.125 |
| AGGCTTAT | 0.128 |
| ATTTCATC | 0.267 |
| CTAGAAGC | -0.136 |
| GACACCTA | 0.00101 |
| AAGTGCTA | 0.196 |
| ACGAAATC | 0.08 |
| GGTGTGTA | -0.00801 |
| CGGTCTGC | -0.326 |
| CTACGAAA | 0.079 |
| ACGAAGGC | -0.299 |
| AGGTGACG | -0.262 |
| ACCCAAAC | -0.014 |
| GCATGGGC | -0.245 |
